Assay results pooled from the literature.
Parts stem from different laboratories: compare values within a part only. ± marks the error that the study gave.

Block 1
Organism: SARS-CoV-2 Wuhan spike VSV pseudovirus
Effect on: pseudovirus entry
Concentration: 10 µM
Quantity: inhibition
Cn1ccnc1SCc1cn2cc(Cl)ccc2n1: 100%
O=C(Cn1cncn1)N1CCC(c2cc(-c3ccccc3Cl)n[nH]2)CC1: 100%
Cn1nc(-c2nnc(-c3ccc(F)cc3)o2)c2c1CCN(S(=O)(=O)c1ccc(Cl)s1)C2: 83%
Cc1cc(=O)[nH]c(CCNC(=O)[C@@H](O)c2ccccc2)n1: 99%
O=C(Cn1ncc(Cl)c(Cl)c1=O)NC1CCCCC1: 96%
O=C(Cc1ccc2c(c1)OCCO2)Nc1ccc(-c2nccs2)cc1: 70%
CCN(c1ccc2sc(C(=O)Nc3cccc(OC)c3)cc2c1)S(C)(=O)=O: 53%
O=S(=O)(c1ccc(-c2nnc(C3CCC3)o2)o1)N1CCN(C2CCCCC2)CC1: 79%
COc1cc(NC(=O)CN2C[C@@H](C)O[C@@H](C)C2)ccc1NC(=O)CC(C)C: 100%
COc1ccc(S(=O)(=O)N2CCC[C@@H]2C(=O)NCCc2csc(C)n2)cc1Cl: 55%
O=C(CC1CC1)N1CC(F)(F)C[C@H]1c1nc(-c2cccnc2)no1: 72%
O=C(OCc1cc(Cl)cc2c1OCOC2)c1ccc2c(c1)S(=O)(=O)N=C1CCCCCN12: 100%
Cc1noc(C)c1C(=O)N1C[C@@H](CO)[C@H](c2ccncc2)C1: 73%
O=C1c2ccccc2C(=O)N1Cn1ncc(Cl)c(Cl)c1=O: 99%
COc1ccc(Cn2ccc3nc4ccn(-c5ccn[nH]5)c(=O)c4cc3c2=O)cc1: 72%

Other studies, line by line
rep nsp12 RdRp: Replicase polyprotein 1ab, nsp12 RdRp (rep, Severe acute respiratory syndrome coronavirus 2, UniProt P0DTD1)
rep papain-like protease: Replicase polyprotein 1ab, papain-like protease (rep, Severe acute respiratory syndrome coronavirus 2, UniProt P0DTD1)
rep nsp14: Replicase polyprotein 1ab, nsp14 (rep, Severe acute respiratory syndrome coronavirus 2, UniProt P0DTD1)
CS(=O)(=O)c1cccc(CNc2nc(Nc3ccc4c(c3)CCC(=O)N4)ncc2C(F)(F)F)c1 — BLI response (rep nsp12 RdRp; binding, biolayer interferometry; concentration not given): 0 nm
CC(C)(C)[C@@H]1NC(=O)O[C@@H]2CCC[C@H]2OC/C=C/C(F)(F)c2nc3ccccc3nc2O[C@@H]2C[C@@H](C(=O)N[C@]3(C(=O)NS(=O)(=O)C4(C)CC4)C[C@H]3C(F)F)N(C2)C1=O — activity (rep papain-like protease; concentration not given, C111S mutant; baseline: positive control): 21.2%
CC(C)Nc1nc2cc(Cl)c(Cl)cc2n1[C@H]1O[C@@H](CO)[C@H](O)[C@@H]1O — EC50 (SARS-CoV-2; viral RNA copies; Vero C1008, Omicron BA.1; 48 h): 3.14 ± 0.15 µM
C=C1C[C@@]23CC[C@H]4[C@@](C)(CCC[C@@]4(C)C(=O)O)[C@@H]2CC[C@]1(O[C@@H]1O[C@H](CO)[C@@H](O)[C@H](O)[C@H]1O[C@@H]1O[C@H](CO)[C@@H](O)[C@H](O)[C@H]1O)C3 — BLI response (rep nsp12 RdRp; binding, biolayer interferometry; 50 µM): 0.05 nm
Nc1ncnc2c1ncn2[C@@H]1O[C@H](CO)[C@@H](O)[C@@H]1O — EC50 (SARS-CoV-2; viral RNA copies; Vero C1008, Omicron BA.1; 48 h): 3.25 ± 0.11 µM
CNCC12CC3CC(CC1C3)C2 — inhibition (Matrix protein 2 (Influenza A virus, UniProt P0DOF5, V27A); concentration not given, pH 5.5, cell-based): 0%
N#C[C@@]1(n2ccc(N)nc2=O)O[C@H](CO)[C@@H](O)[C@H]1O — EC90 (SARS-CoV-2; viral replication; Calu-3, Beta): 2 ± 2.3 µM
O=C(NC1CCN(c2ncnc3[nH]cnc23)CC1)c1cccc(S(=O)(=O)N2CCCC2)c1 — IC50 (rep nsp14; enzyme activity; SARS-CoV-2): 4.11 µM
C[C@H]1c2cccc(O)c2C(=O)C2=C(O)[C@]3(O)C(=O)C(C(N)=O)=C(O)[C@@H](N(C)C)[C@@H]3[C@@H](O)[C@@H]21 — activity (rep papain-like protease; concentration not given, C111S mutant; baseline: positive control): 27.1%
CNCC12C3CCC4C3C3C(CCC31)C42.Cl — inhibition (Matrix protein 2 (Influenza A virus, UniProt P0DOF5, S31N); concentration not given, pH 5.5, cell-based): 0%
CCC(CC)COC(=O)[C@H](C)N[P@](=O)(OC[C@H]1O[C@@](C#N)(c2ccc3c(N)ncnn23)[C@H](O)[C@@H]1O)Oc1ccccc1 — EC90 (SARS-CoV-2; viral replication; Calu-3, Beta): 0.1 ± 0.06 µM
SLVAVTAAQSTIEEQAHTFLDKFN — relative binding (SARS-CoV-2 spike RBD; peptide spot array; peptide; concentration not given; baseline: wild-type ACE2 peptide): 3.18
CCC(CC)[C@H](NC(C)=O)[C@@H]1[C@H](O)[C@@H](C(=O)O)C[C@H]1N=C(N)N — IC50 (neuraminidase (Influenza B virus, UniProt A0A1S5RAG6, G145E)): 0.0072 ± 0.0008 µM
SLVAVTAAQSTIEEQAKTFLDKKN — relative binding (SARS-CoV-2 spike RBD; peptide spot array; peptide; concentration not given; baseline: wild-type ACE2 peptide): 3.28
O=C(NC1CCN(c2ncnc3[nH]cnc23)CC1)c1cccc(S(=O)(=O)Nc2ccccc2)c1 — inhibition (rep nsp14; enzyme activity; SARS-CoV-2; concentration not given): 50.1%

A few entries again (block 1):
O=C1c2ccccc2C(=O)N1Cn1ncc(Cl)c(Cl)c1=O: 99%
COc1ccc(Cn2ccc3nc4ccn(-c5ccn[nH]5)c(=O)c4cc3c2=O)cc1: 72%
